Experimental data collected from several papers.
Protocols differ between the studies behind these lines. ± marks the error that the study gave.
Sequence of UniProt P41143 (whole entry, looked up): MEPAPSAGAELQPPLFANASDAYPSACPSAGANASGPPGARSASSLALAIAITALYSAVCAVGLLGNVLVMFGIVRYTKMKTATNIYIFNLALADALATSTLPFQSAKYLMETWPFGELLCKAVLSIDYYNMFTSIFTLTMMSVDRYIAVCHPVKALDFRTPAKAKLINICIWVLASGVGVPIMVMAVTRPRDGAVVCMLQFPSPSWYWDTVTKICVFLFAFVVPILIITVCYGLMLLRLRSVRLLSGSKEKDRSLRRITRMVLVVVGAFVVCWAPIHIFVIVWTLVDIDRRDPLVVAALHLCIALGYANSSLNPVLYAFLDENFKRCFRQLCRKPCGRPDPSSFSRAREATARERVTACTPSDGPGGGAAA
Sequence of UniProt P37136 (whole entry, looked up): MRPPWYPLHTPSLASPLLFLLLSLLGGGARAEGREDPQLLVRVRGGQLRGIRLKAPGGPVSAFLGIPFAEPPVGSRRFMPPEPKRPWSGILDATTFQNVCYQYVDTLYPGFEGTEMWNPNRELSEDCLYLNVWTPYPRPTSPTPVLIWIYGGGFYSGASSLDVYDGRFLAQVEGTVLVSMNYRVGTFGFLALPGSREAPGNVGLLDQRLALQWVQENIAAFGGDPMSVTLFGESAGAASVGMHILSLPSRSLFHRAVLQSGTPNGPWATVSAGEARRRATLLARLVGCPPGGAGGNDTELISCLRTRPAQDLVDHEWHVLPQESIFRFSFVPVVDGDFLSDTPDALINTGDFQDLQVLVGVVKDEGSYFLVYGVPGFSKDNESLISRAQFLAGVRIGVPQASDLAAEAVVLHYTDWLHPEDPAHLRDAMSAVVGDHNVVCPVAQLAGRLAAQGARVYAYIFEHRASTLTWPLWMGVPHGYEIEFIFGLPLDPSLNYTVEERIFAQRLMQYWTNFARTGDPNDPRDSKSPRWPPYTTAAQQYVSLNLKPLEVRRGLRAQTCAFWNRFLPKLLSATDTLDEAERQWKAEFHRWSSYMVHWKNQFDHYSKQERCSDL
Sequence of UniProt P06276 (whole entry, looked up): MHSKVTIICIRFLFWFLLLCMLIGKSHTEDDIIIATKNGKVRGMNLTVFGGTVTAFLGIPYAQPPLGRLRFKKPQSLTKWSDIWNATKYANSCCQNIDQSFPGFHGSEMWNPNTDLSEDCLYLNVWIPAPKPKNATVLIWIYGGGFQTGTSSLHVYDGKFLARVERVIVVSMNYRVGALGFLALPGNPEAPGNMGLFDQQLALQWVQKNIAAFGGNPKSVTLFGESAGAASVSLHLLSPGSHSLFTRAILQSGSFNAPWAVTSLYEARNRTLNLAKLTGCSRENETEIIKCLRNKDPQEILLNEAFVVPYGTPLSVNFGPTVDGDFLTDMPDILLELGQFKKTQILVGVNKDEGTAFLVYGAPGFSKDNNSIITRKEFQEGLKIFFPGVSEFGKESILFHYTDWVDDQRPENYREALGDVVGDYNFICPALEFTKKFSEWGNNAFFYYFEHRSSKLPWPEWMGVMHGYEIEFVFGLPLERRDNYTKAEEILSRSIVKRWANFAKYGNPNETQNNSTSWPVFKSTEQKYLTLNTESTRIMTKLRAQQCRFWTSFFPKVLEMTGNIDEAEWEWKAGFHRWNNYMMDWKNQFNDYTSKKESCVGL
Sequence of UniProt P35372 (whole entry, looked up): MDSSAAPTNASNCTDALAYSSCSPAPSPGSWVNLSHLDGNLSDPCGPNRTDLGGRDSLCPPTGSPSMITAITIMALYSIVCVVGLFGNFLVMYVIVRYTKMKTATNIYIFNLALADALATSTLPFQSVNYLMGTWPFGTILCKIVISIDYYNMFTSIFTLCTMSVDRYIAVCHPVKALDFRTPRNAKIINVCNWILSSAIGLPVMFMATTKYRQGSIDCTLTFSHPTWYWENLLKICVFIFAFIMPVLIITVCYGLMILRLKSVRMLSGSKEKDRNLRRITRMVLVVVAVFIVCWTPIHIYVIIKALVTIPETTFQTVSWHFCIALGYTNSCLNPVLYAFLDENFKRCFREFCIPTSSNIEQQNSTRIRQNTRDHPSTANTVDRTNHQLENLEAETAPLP
Sequence of UniProt P10632 (whole entry, looked up): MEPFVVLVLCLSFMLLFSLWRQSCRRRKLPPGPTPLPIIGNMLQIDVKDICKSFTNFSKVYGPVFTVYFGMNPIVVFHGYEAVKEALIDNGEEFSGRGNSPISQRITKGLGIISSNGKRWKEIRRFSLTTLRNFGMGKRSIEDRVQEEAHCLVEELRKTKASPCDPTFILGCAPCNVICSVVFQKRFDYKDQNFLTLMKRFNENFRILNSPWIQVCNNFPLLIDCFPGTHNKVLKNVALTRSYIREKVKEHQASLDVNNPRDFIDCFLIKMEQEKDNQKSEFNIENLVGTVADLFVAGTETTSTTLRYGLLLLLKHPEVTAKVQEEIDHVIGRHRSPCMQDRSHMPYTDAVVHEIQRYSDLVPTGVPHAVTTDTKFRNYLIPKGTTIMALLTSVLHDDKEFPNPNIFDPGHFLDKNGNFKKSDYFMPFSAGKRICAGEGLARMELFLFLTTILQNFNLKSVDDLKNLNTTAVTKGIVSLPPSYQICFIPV

The IC50 of `mitragynine` is reported as 33500 nM (Cytochrome P450 2C8 (CYP2C8, Homo sapiens, UniProt P10632); amodiaquine N-deethylation, inhibitor; human liver microsomes).
`benzalkonium bromide` has an inhibition of -49.7 ± 5.41% (Cholinesterase (BCHE, Homo sapiens, UniProt P06276); enzyme activity, inhibitor; concentration not given, with Triton).
For `norbinaltorphimine`, the Ke was 26.7 ± 7 nM (OPRM1 (Homo sapiens, UniProt P35372); G protein activation, antagonist; CHO cells overexpressing receptor; added: DAMGO).
With `maraviroc` the pKa was 7.3.
The EC50 of `SNC80` is reported as 0.36 nM (Delta-type opioid receptor, with Gz (OPRD1, Homo sapiens, UniProt P41143); Gz activation, agonist).
`propranolol` has a permeability of 3.9 ×10⁻⁶ cm/s (PAMPA; 2% lecithin in dodecane; 100 µM, 17 h, pH 6.4).
With `phoxim-oxon` the IC50 was 29 nM (Ache (Rattus norvegicus, UniProt P37136); inhibitor; rat, postnatal day 70, rat serum; CaE and BChE inhibitors present).
